{"data": "Published values of several laboratories", "note": "Lines come from different studies, so protocols differ. ± marks the error that the study gave."}
{"SMILES": "O=C1NCC(Cc2ccccc2)N(CC2CCCN2CC(CC2CCCCC2)N2CC(Cc3ccc(O)cc3)N(CCc3ccccc3)C(=O)C2=O)C1=O (stereo not shown)", "cell line": "WM 266-4", "setting": "concentration not given, 4 h", "measurement": "mitochondrial membrane potential", "value": "decreased"}
{"SMILES": "COc1cc(CNC(=O)C[C@H](C)CCC=C(C)C)ccc1OCc1cn(-c2cccc(C(F)(F)F)c2)nn1", "cell line": "U-251 CNS cancer cells", "assay": "SRB", "setting": "10 µM, 48 h", "measurement": "growth percent", "value": "51%"}
{"SMILES": "CC(C)Cc1ccc(C(C)C(=O)[O][Pt]([NH2])([NH2])([Cl])([Cl])[O]C(=O)C(Cl)Cl)cc1 (stereo not shown)", "cell line": "C13 and 2008", "assay": "cytotoxicity, MTT", "scale": "baseline: IC50 C13 over IC50 2008", "measurement": "resistance factor", "value": 3}
{"SMILES": "N#Cc1cccc(-c2ccc(=O)n(Cc3cccc(-c4ncc(OCC5CCN(CC(=O)N6CCN(c7ccc8c(c7)C(=O)N(C7CCC(=O)NC7=O)C8=O)CC6)CC5)cn4)c3)n2)c1 (stereo not shown)", "cell line": "EBC-1", "assay": "annexin V flow cytometry", "setting": "100 nM, 48 h", "measurement": "apoptotic cells", "value": "68%"}
{"SMILES": "O=C(Nc1ccccc1)c1ccc(Nc2nnc(-c3ccc(O)cc3)c3ccccc23)cc1", "cell line": "rat cortical neurons", "assay": "inhibitor", "setting": "dose not given, added: [3H]-anandamide", "measurement": "anandamide uptake", "value": "inhibited"}
{"SMILES": "CC/C=C\\C/C=C\\C/C=C\\C/C=C\\C/C=C\\C/C=C\\CCC(=O)Nc1ccn(C2OC(CO)C(O)C2(F)F)c(=O)n1 (stereo not shown)", "cell line": "SK-MEL-2", "assay": "NCI60 screen", "measurement": "TGI", "value": "29.8 µM"}
{"SMILES": "COC(=O)c1ccccc1-c1c2ccc(=O)cc-2oc2cc(OCCCCCCCCCCC[P+](c3ccccc3)(c3ccccc3)c3ccccc3)ccc12", "cell line": "HeLa cells", "assay": "confocal microscopy", "test system": "mitochondria", "setting": "100 nM", "scale": "baseline: MitoTracker Deep Red", "measurement": "fluorescence ratio", "value": 1.01}
{"SMILES": "COc1cc(CNC(=O)C[C@H](C)CCC=C(C)C)ccc1OCc1cn(-c2ccc(Cl)cc2Cl)nn1", "cell line": "SF-539 CNS cancer cells", "assay": "SRB", "setting": "10 µM, 48 h", "measurement": "growth percent", "value": "66.9%"}
{"SMILES": "O=C(Nc1ccc(C(F)(F)F)cc1Cl)c1cc(Cl)ccc1O", "cell line": "C4-2B MDVR cells", "assay": "total cell number", "setting": "0.5 µM, 5 days", "measurement": "cell growth", "value": "decreased"}
{"SMILES": "COc1cc(CNC(=O)C[C@H](C)CCC=C(C)C)ccc1OCc1cn(-c2ccccc2[N+](=O)[O-])nn1", "cell line": "RPMI-8226 leukaemia cells", "assay": "SRB", "setting": "10 µM, 48 h", "measurement": "growth percent", "value": "39.9%"}
{"SMILES": "O=Cc1c(O)ccc2ccccc12", "cell line": "HUVEC", "assay": "qPCR, item: KRIT1, HEG1", "setting": "75 µM, 4 h", "measurement": "mRNA level", "value": "no effect"}
{"SMILES": "CC(=O)OC[C@H]1O[C@@H](Sc2sc(C(=O)c3ccc(C)cc3)c(N)c2-c2nc3ccccc3s2)[C@H](OC(C)=O)[C@@H](OC(C)=O)[C@H]1OC(C)=O", "cell line": "SK-MEL-2", "assay": "SRB", "setting": "10 µM, 48 h", "scale": "baseline: untreated", "measurement": "growth", "value": "98.6%"}
{"SMILES": "C=C(C)[C@@H]1CC[C@]2(C(=O)OCO/N=[N+](\\[O-])N3CCCC3)CC[C@]3(C)[C@H](CC[C@@H]4[C@@]5(C)CC[C@H](OC(C)=O)C(C)(C)[C@@H]5CC[C@]43C)[C@@H]12", "cell line": "B16-F10", "assay": "PI flow cytometry", "setting": "0.50 µM", "measurement": "cells in G2 phase", "value": "9.95%"}
{"SMILES": "COc1cc2c(cc1C)NC(=O)C2=Cc1c(Cl)[nH]c2c1ccc1ccccc12", "cell line": "breast cancer subpanel of NCI-60", "setting": "48 h", "measurement": "TGI", "value": "4.37 µM"}
{"SMILES": "COc1ccc(NC(=O)CCc2nc3cc(Cl)ccc3[nH]c2=O)cc1", "cell line": "unspecified cells", "setting": "concentration not given", "scale": "baseline: untreated control", "measurement": "BCL2 level", "value": "0.448 fold"}
{"SMILES": "COc1ccc([C@@H]2CC(=O)c3c(O)cc(O[C@@H]4O[C@H](CO[C@@H]5O[C@@H](C)[C@H](O)[C@@H](O)[C@H]5O)[C@@H](O[C@H]5O[C@H](CO)[C@@H](O)[C@H](O)[C@H]5O)[C@H](O)[C@H]4O)cc3O2)cc1O", "cell line": "A549", "assay": "cell growth or viability, MTS", "setting": "100 µg/mL, 48 h", "measurement": "viability", "value": "43%"}
{"SMILES": "COc1cc(CNC(=O)C[C@H](C)CCC=C(C)C)ccc1OCc1cn(-c2ccc(Cl)c(Cl)c2)nn1", "cell line": "SF-539 CNS cancer cells", "assay": "SRB", "setting": "10 µM, 48 h", "measurement": "growth percent", "value": "5.3%"}
{"SMILES": "COc1cc(Cn2ccc3cc(C(=O)NCC45CC6CC(CC(C6)C4)C5)ccc32)ccc1C(=O)NO", "cell line": "BV-2", "assay": "amyloid phagocytosis", "setting": "1000 nM, 3 h, added: Aβ42 10 nM", "measurement": "phagocytosing cells", "value": "increased"}
{"SMILES": "CC(=O)OC[C@H]1O[C@@H](Sc2sc(C(=O)c3ccc(Br)cc3)c(N)c2-c2nc3ccccc3s2)[C@H](OC(C)=O)[C@@H](OC(C)=O)[C@H]1OC(C)=O", "cell line": "IGROV-1", "assay": "SRB", "setting": "10 µM, 48 h", "scale": "baseline: untreated", "measurement": "growth", "value": "68.8%"}
{"SMILES": "O=C(CCCCC1SCC2NC(=O)NC21)NCCCCC1CN(C(CC2CCCCC2)CN2CCCC2CN2C(=O)C(=O)NCC2Cc2ccccc2)C(=O)C(=O)N1CCc1ccccc1 (stereo not shown)", "cell line": "WM 266-4", "assay": "western blot, item: cleaved lamin A/C", "setting": "100 µM, 24 h", "measurement": "lamin A/C cleavage", "value": "no effect"}
{"SMILES": "COc1cc(CNC(=O)C[C@H](C)CCC=C(C)C)ccc1OCc1cn(-c2ccccc2)nn1", "cell line": "RPMI-8226 leukaemia cells", "assay": "SRB", "setting": "10 µM, 48 h", "measurement": "growth percent", "value": "37.9%"}
{"SMILES": "COc1cc(C(=O)c2[nH]c(N)nc2-c2cccs2)cc(OC)c1OC", "cell line": "HeLa cells", "assay": "western blot", "setting": "120 nM, 24 h", "scale": "baseline: polymeric over soluble tubulin", "measurement": "polymeric to soluble tubulin ratio", "value": "1.6 ± 0.1"}
{"SMILES": "COc1cc(OC)cc([C@@H]2C[C@H](C)OC(=O)c3c(C(=O)C(F)(F)F)c4ccccn4c32)c1 (relative stereo)", "cell line": "RWPE-1 and DU-145", "assay": "resazurin", "scale": "baseline: CC50 RWPE-1 over IC50 DU-145", "measurement": "selectivity ratio", "value": 1.03}
{"SMILES": "FC(F)(F)c1ccnc(-c2cc(C(F)(F)F)ccn2)c1.FC(F)(F)c1ccnc(-c2cc(C(F)(F)F)ccn2)c1.[Cl-].[Cl-].[Ru+2].c1csc(-c2ccc(-c3ccc(-c4ccc(-c5nc6c7cccnc7c7ncccc7c6[nH]5)s4)s3)s2)c1", "cell line": "SK-MEL-28", "assay": "cell viability", "setting": "hypoxia 1% O2, added: red light", "scale": "baseline: dark EC50 over light EC50", "measurement": "mean phototherapeutic index", "value": 21}
{"SMILES": "COc1cc(CNC(=O)C[C@H](C)CCC=C(C)C)ccc1OCc1cn(-c2ccc(F)cc2)nn1", "cell line": "U-251 CNS cancer cells", "assay": "SRB", "setting": "10 µM, 48 h", "measurement": "growth percent", "value": "65.4%"}
{"SMILES": "Cc1cc(C)c2sc(NC(=O)C3CCN(S(=O)(=O)c4ccc(F)cc4)CC3)nc2c1", "cell line": "wild-type mouse BMDM", "assay": "flow cytometry", "setting": "10 µM, 6 h pretreatment, added: apoptotic Jurkat cells 45 min", "scale": "baseline: vehicle", "measurement": "efferocytosis", "value": "increased"}
{"SMILES": "COc1cc(CNC(=O)C[C@H](C)CCC=C(C)C)ccc1OCc1cn(-c2ccc([N+](=O)[O-])cc2)nn1", "cell line": "A498", "assay": "SRB", "setting": "10 µM, 48 h", "measurement": "growth percent", "value": "92.6%"}
{"SMILES": "COc1ccc(NC(=O)COc2ccc(/C=C/C(C)=N/O)cc2OC)cc1", "cell line": "SH-SY5Y", "assay": "flow cytometry", "setting": "2.5 µM, added: amyloid beta 10 µM", "measurement": "TNF-α expressing cells", "value": "41.4%"}
{"SMILES": "CN1CCC2(CC1)C/C(=N\\NC(=O)Nc1ccccc1)c1ccccc1O2", "cell line": "MCF7", "assay": "annexin V-FITC/PI", "setting": "concentration not given, 24 h", "measurement": "necrotic cells", "value": "2.74%"}
{"SMILES": "COc1cc(CNC(=O)C[C@H](C)CCC=C(C)C)ccc1O", "cell line": "SF-539 CNS cancer cells", "assay": "SRB", "setting": "10 µM, 48 h", "measurement": "growth percent", "value": "93.6%"}
{"SMILES": "COC(=O)c1ccccc1-c1c2ccc(=O)cc-2oc2cc(OCCCCC[P+](c3ccccc3)(c3ccccc3)c3ccccc3)ccc12", "cell line": "HeLa cells", "assay": "confocal microscopy", "test system": "mitochondria", "setting": "100 nM", "scale": "baseline: MitoTracker Deep Red", "measurement": "fluorescence ratio", "value": 0.065}
{"SMILES": "CCC(=C(c1ccc(Cl)cc1)c1ccc(OCCCN(C)C)cc1)c1ccc(OC)cc1", "cell line": "IGROV-1", "assay": "cell growth or viability", "measurement": "GI50", "value": "3.09 µM"}
{"SMILES": "CC[C@@]12CCc3c(c4ccccc4n3C)CCN(C[C@H](O)[C@H]1O)C2", "cell line": "BV-2", "assay": "NO production", "setting": "1.5 µM, 1 h, 24 h stimulation, added: LPS 800 ng/mL", "scale": "baseline: LPS control", "measurement": "inhibition", "value": "37.8 ± 4.7%"}
{"SMILES": "CN1CCN(C(=O)N(CCCCCCC(=O)NO)c2ccc(-c3ccc4cnn(C)c4c3)cc2)CC1", "cell line": "MM1.S", "assay": "immunoblot, item: DACT3", "setting": "300 nM, 24 h", "measurement": "protein level", "value": "increased"}
{"SMILES": "COc1ccc(C2=Nn3c(NN=C4C(=O)N(C)c5ccc(Br)cc54)nnc3SC2)cc1", "cell line": "SF-539", "assay": "cell growth or viability, SRB", "setting": "10 µM", "measurement": "inhibition", "value": "18%"}
{"SMILES": "CCc1noc(CC)c1C(=O)O[C@H]1C(C)=C[C@]23C(=O)[C@@H](C=C(CO)[C@@H](O)[C@]12O)[C@H]1[C@@H](C[C@H]3C)C1(C)C", "cell line": "human primary epidermal keratinocytes", "assay": "CyQUANT DNA content", "setting": "72 h", "measurement": "complete growth arrest concentration", "value": "~100 nM"}
{"SMILES": "COc1ccc([C@@H]2CC(=O)c3c(O)cc(O[C@@H]4O[C@H](CO[C@@H]5O[C@@H](C)[C@H](O)[C@@H](O)[C@H]5O)[C@@H](O)[C@H](O)[C@H]4O)cc3O2)cc1O", "cell line": "MRC5", "assay": "trypan blue exclusion", "setting": "150 µg/mL, 24 h", "measurement": "cell count", "value": "6670 ± 662"}
{"SMILES": "C=C(CC)C(=O)c1ccc(OCC(=O)NCCNC(=O)COc2ccc(C(=O)C(=C)CC)c(Cl)c2Cl)c(Cl)c1Cl", "cell line": "A549/DDP cisplatin-resistant", "setting": "2.0 µM, added: cisplatin 2 µM", "scale": "baseline: compound alone corrected", "measurement": "apoptosis increase", "value": "~4 fold"}
{"SMILES": "COc1ccc2c(c1)C(=C1Nc3ccccc3C1=NOCC(O)CO)C(=O)N2 (stereo not shown)", "cell line": "PANC-1, MIA PaCa-2, BxPC-3, AsPC-1", "assay": "Western blot, item: STAT3 pTyr705", "setting": "5 µM, 4 h", "measurement": "phosphorylation", "value": "decreased"}
{"SMILES": "Cc1ccc(N=C2CC(=O)c3sc(C)nc3C2=O)cc1", "cell line": "HEK-293T", "assay": "H4K20me1 level, inhibitor, western blot", "setting": "24 h", "measurement": "effective concentration", "value": "< 5 µM"}
{"note": "Excerpt of the above:"}
{"SMILES": "CC/C=C\\C/C=C\\C/C=C\\C/C=C\\C/C=C\\C/C=C\\CCC(=O)Nc1ccn(C2OC(CO)C(O)C2(F)F)c(=O)n1 (stereo not shown)", "cell line": "SK-MEL-2", "assay": "NCI60 screen", "measurement": "TGI", "value": "29.8 µM"}
{"SMILES": "COC(=O)c1ccccc1-c1c2ccc(=O)cc-2oc2cc(OCCCCCCCCCCC[P+](c3ccccc3)(c3ccccc3)c3ccccc3)ccc12", "cell line": "HeLa cells", "assay": "confocal microscopy", "test system": "mitochondria", "setting": "100 nM", "scale": "baseline: MitoTracker Deep Red", "measurement": "fluorescence ratio", "value": 1.01}
{"SMILES": "COc1cc(CNC(=O)C[C@H](C)CCC=C(C)C)ccc1OCc1cn(-c2ccc(Cl)cc2Cl)nn1", "cell line": "SF-539 CNS cancer cells", "assay": "SRB", "setting": "10 µM, 48 h", "measurement": "growth percent", "value": "66.9%"}
{"SMILES": "O=C(Nc1ccc(C(F)(F)F)cc1Cl)c1cc(Cl)ccc1O", "cell line": "C4-2B MDVR cells", "assay": "total cell number", "setting": "0.5 µM, 5 days", "measurement": "cell growth", "value": "decreased"}
